{"data": "Assay results collected from several papers", "organism": "Human betaherpesvirus 5", "effect on": "viral replication", "note": "Protocols differ between the studies behind these lines. Numbers after ± are the reported error."}
{"SMILES": "CC[C@H](CO)Nc1nc(NCc2ccccc2O)c2ncn(C(C)C)c2n1", "test": "fluorescent focus reduction", "system": "HFFF, Toledo GFP reporter", "conditions": "7 days", "quantity": "IC50", "result": "3.2 ± 1.6 µM"}
{"SMILES": "O=C(NCc1ccc(F)cc1F)c1cn(C2CC2)cc(O)c1=O", "test": "inhibitor", "conditions": "7 days", "quantity": "EC50", "result": "4.8 µM"}
{"SMILES": "O=C(NCc1ccc(F)cc1)c1nc(Cl)c2cccnc2c1O", "test": "inhibitor", "system": "HFF", "conditions": "10 µM", "quantity": "inhibition", "result": "32%"}
{"SMILES": "Nc1ccn(C[C@@H](CO)OCP(=O)(O)O)c(=O)n1", "test": "fluorescent focus reduction", "system": "HFFF, Toledo GFP reporter", "conditions": "7 days", "quantity": "IC50", "result": "0.2 ± 0.1 µM"}
{"SMILES": "O=C(NCc1ccccc1F)c1cn(Cc2ccc(F)cc2)cc(O)c1=O", "test": "inhibitor", "conditions": "7 days", "quantity": "EC50", "result": "1.6 µM"}
{"SMILES": "COCCNC(=O)c1nc(Cl)c2cccnc2c1O", "test": "inhibitor", "system": "HFF", "conditions": "10 µM", "quantity": "inhibition", "result": "7.1%"}
{"SMILES": "O=c1cc(-c2ccc(O)c(O)c2)oc2cc(O)cc(O)c12", "test": "absorbance", "system": "human Fibroblast", "conditions": "72 h", "quantity": "IC50", "result": "6 µM"}
{"SMILES": "COC(=O)c1nc(Cl)c2cccnc2c1O", "test": "inhibitor", "system": "HFF", "conditions": "10 µM", "quantity": "inhibition", "result": "31%"}
{"SMILES": "O=C(NCc1cccc(F)c1)c1cn(Cc2ccc(F)cc2)cc(O)c1=O", "test": "inhibitor", "conditions": "7 days", "quantity": "EC50", "result": "0.97 µM"}
{"SMILES": "O=c1c(-c2ccc(O)cc2)coc2cc(O)cc(O)c12", "test": "absorbance", "system": "human Fibroblast", "conditions": "72 h", "quantity": "IC50", "result": "38 µM"}
{"SMILES": "Cc1cc(CNC(=O)c2cn(Cc3ccc(F)cc3)cc(O)c2=O)ccc1F", "test": "inhibitor", "conditions": "7 days", "quantity": "EC50", "result": "1 µM"}
{"SMILES": "O=c1cc(-c2ccc(O)cc2)oc2cc(O)cc(O)c12", "test": "absorbance", "system": "human Fibroblast", "conditions": "72 h", "quantity": "IC50", "result": "22 µM"}
{"SMILES": "O=C(NCc1ccc(F)cc1F)c1c[nH]cc(O)c1=O", "test": "inhibitor", "conditions": "7 days", "quantity": "EC50", "result": "8 µM"}
{"SMILES": "O=c1c(O)c(-c2ccc(O)c(O)c2)oc2cc(O)cc(O)c12", "test": "absorbance", "system": "human Fibroblast", "conditions": "72 h", "quantity": "IC50", "result": "13 µM"}
{"SMILES": "Cc1ccc(CNC(=O)c2nc(-c3ccccc3)c3cccnc3c2O)cc1", "test": "inhibitor", "system": "HFF", "conditions": "10 µM", "quantity": "inhibition", "result": "23%"}
{"SMILES": "O=c1cc(-c2ccccc2)oc2cc(O)c(O)c(O)c12", "test": "absorbance", "system": "human Fibroblast", "conditions": "72 h", "quantity": "IC50", "result": "0.4 µM"}
{"SMILES": "COc1cccc(-c2nc(C(=O)NCc3ccc(C)cc3)c(O)c3ncccc23)c1", "test": "inhibitor", "system": "HFF", "conditions": "10 µM", "quantity": "inhibition", "result": "47%"}
{"note": "Excerpt of the above:"}
{"SMILES": "O=c1cc(-c2ccc(O)c(O)c2)oc2cc(O)cc(O)c12", "test": "absorbance", "system": "human Fibroblast", "conditions": "72 h", "quantity": "IC50", "result": "6 µM"}
{"SMILES": "O=c1c(-c2ccc(O)cc2)coc2cc(O)cc(O)c12", "test": "absorbance", "system": "human Fibroblast", "conditions": "72 h", "quantity": "IC50", "result": "38 µM"}
